{"data": "Results of several laboratories", "rep main protease": "Replicase polyprotein 1ab, main protease (rep, Severe acute respiratory syndrome coronavirus 2, UniProt P0DTD1)", "note": "Protocols differ between the studies behind these lines. Numbers after ± are the reported error."}
{"Structure (SMILES)": "CC(C)(C)NC(=O)N[C@H](C(=O)N1C[C@H]2[C@@H]([C@H]1C(=O)NC(CC1CCC1)C(=O)C(N)=O)C2(C)C)C(C)(C)C (stereo partly drawn)", "target or system": "Severe acute respiratory syndrome coronavirus 2", "assay": "viral replication, inhibitor", "system": "HEK-293T", "quantity": "IC50", "value": "5.4 µM"}
{"Structure (SMILES)": "Cc1cccc(NC(=O)CS(=O)(=O)c2nc(-c3ccccc3)cn2-c2ccc(Cl)cc2)c1C", "target or system": "Severe acute respiratory syndrome coronavirus 2", "assay": "viral entry", "setting": "VSVΔG pseudovirus with Omicron S", "quantity": "IC50", "value": "30.8 µM"}
{"Structure (SMILES)": "Cc1cc(C2CCCCC2)n(OCOP(=O)(O)O)c(=O)c1", "target or system": "rep main protease", "assay": "viral replication, Gluc reporter", "system": "SARS-CoV-2", "setting": "20 µM", "quantity": "inhibition", "value": "-0.569%"}
{"Structure (SMILES)": "CC(C)C(=O)OC[C@@]1(F)O[C@@H](n2cnc(-c3cnc(N)nc3)c2)[C@H](OC(=O)C(C)C)[C@@H]1OC(=O)C(C)C", "target or system": "Severe acute respiratory syndrome coronavirus 2", "assay": "viral replication, inhibitor", "system": "A549-ACE2", "setting": "24 h", "quantity": "IC50", "value": "> 100 µM"}
{"Structure (SMILES)": "CC#CCn1c(N2CCC[C@@H](N)C2)nc2c1c(=O)n(Cc1nc(C)c3ccccc3n1)c(=O)n2C", "target or system": "Severe acute respiratory syndrome coronavirus 2", "assay": "viral replication", "system": "Vero C1008", "setting": "48 h", "quantity": "IC50", "value": "2.21 µM"}
{"Structure (SMILES)": "Cn1cnc(Cn2c(=O)[nH]/c(=N\\c3cc4cn(C)nc4cc3Cl)n(Cc3cc(F)c(F)cc3F)c2=O)n1", "system": "human, normal renal function", "setting": "oral, 375 mg", "quantity": "anaemia TEAE, Severe severity", "value": "0%"}
{"Structure (SMILES)": "c1ccc(-c2ccc(-c3nc4ccccc4nc3-c3ccccc3)cc2)cc1", "target or system": "Severe acute respiratory syndrome coronavirus 2", "assay": "viral entry, inhibitor", "setting": "pseudovirus", "quantity": "IC50", "value": "142 µM"}
{"Structure (SMILES)": "C=C1CC[C@H]2C(=C)CC[C@H]3C(=C)C(=O)O[C@@H]3[C@@H]12", "target or system": "Severe acute respiratory syndrome coronavirus 2", "assay": "cytopathic effect", "system": "Vero C1008", "setting": "72 h", "quantity": "IC50", "value": "~0.844 µM"}
{"Structure (SMILES)": "Cc1cnc(C(=O)N[C@H]2CCCCC/C=C\\[C@@H]3C[C@@]3(C(=O)NS(=O)(=O)C3CC3)NC(=O)[C@@H]3C[C@@H](Oc4nc5ccccc5c5ccccc45)CN3C2=O)cn1", "target or system": "Severe acute respiratory syndrome coronavirus 2", "assay": "viral replication, inhibitor", "system": "HEK-293T", "quantity": "IC50", "value": "0.55 µM"}
{"Structure (SMILES)": "CCOc1nc(N)ncc1-c1cn([C@@H]2O[C@](F)(CO[P@@](=O)(N[C@@H](C)C(=O)OC(C)C)Oc3ccccc3)[C@@H](O)[C@H]2O)cn1", "target or system": "Severe acute respiratory syndrome coronavirus 2", "assay": "viral replication, inhibitor", "system": "A549-ACE2", "setting": "24 h", "quantity": "IC50", "value": "> 100 µM"}
{"Structure (SMILES)": "N#C[C@@H]1C[C@@H]2C[C@@H]2N1C(=O)[C@@H](N)C12CC3CC(CC(O)(C3)C1)C2", "target or system": "Severe acute respiratory syndrome coronavirus 2", "assay": "viral replication", "system": "Vero C1008", "setting": "48 h", "quantity": "IC50", "value": "6.68 µM"}
{"Structure (SMILES)": "CCc1c2c(nc3ccc(OC(=O)N4CCC(N5CCCCC5)CC4)cc13)-c1cc3c(c(=O)n1C2)COC(=O)[C@]3(O)CC", "target or system": "Spike glycoprotein (Severe acute respiratory syndrome coronavirus 2, UniProt P0DTC2)", "assay": "binding, BLI", "quantity": "Kd", "value": "59.8 µM"}
{"Structure (SMILES)": "CC(C)C(=O)OC[C@@]1(F)O[C@@H](n2cnc(-c3c[nH]c(=O)nc3N)c2)[C@H](OC(=O)C(C)C)[C@@H]1OC(=O)C(C)C", "target or system": "Severe acute respiratory syndrome coronavirus 2", "assay": "viral replication, inhibitor", "system": "A549-ACE2", "setting": "24 h", "quantity": "IC50", "value": "> 100 µM"}
{"Structure (SMILES)": "Nc1ncnc2c([C@@H]3N[C@H](CO)[C@@H](O)[C@H]3O)c[nH]c12", "target or system": "Junin virus", "assay": "viral replication", "system": "HeLa, Romero", "setting": "25 µM", "quantity": "inhibition", "value": "32.6%"}
{"Structure (SMILES)": "CCCC[C@H](NC(=O)[C@@H]1[C@@H]2[C@H](CN1C(=O)[C@@H](NC(=O)NC1(CS(=O)(=O)C(C)(C)C)CCCCC1)C(C)(C)C)C2(C)C)C(=O)C(=O)NC1CC1", "target or system": "Severe acute respiratory syndrome coronavirus 2", "assay": "viral replication, inhibitor", "system": "HEK-293T", "quantity": "IC50", "value": "15 µM"}
{"Structure (SMILES)": "C[C@]12C=CC(=O)C=C1CC[C@@H]1[C@@H]2[C@@H](O)C[C@@]2(C)[C@H]1C[C@H]1O[C@@H](C3CCCCC3)O[C@]12C(=O)CO", "target or system": "Severe acute respiratory syndrome coronavirus 2", "assay": "viral replication, inhibitor", "system": "VeroE6/TMPRSS2", "setting": "24 h", "quantity": "IC50", "value": "8.5 µM"}
{"Structure (SMILES)": "CC(C)CN(C[C@@H](O)[C@H](Cc1ccccc1)NC(=O)O[C@H]1CO[C@H]2OCC[C@H]21)S(=O)(=O)c1ccc(N)cc1.CCO", "target or system": "rep main protease", "assay": "reporter gene (mKate2), inhibitor", "setting": "20 µM", "quantity": "inhibition", "value": "-0.252%"}
{"Structure (SMILES)": "COc1ncc(-c2cn([C@@H]3O[C@](F)(CO[P@@](=O)(N[C@@H](C)C(=O)OC(C)C)Oc4ccccc4)[C@@H](OC(=O)C(C)C)[C@H]3OC(=O)C(C)C)cn2)cn1", "target or system": "Severe acute respiratory syndrome coronavirus 2", "assay": "viral replication, inhibitor", "system": "A549-ACE2", "setting": "24 h", "quantity": "IC50", "value": "30.9 µM"}
{"Structure (SMILES)": "C=CCc1cc(-c2cc(CC=C)c3oc(=O)n(Cc4nnc(-c5ccc(OC)cc5)o4)c3c2)c2oc(=O)n(Cc3nnc(-c4ccc(OC)cc4)o3)c2c1", "target or system": "Severe acute respiratory syndrome coronavirus 2", "assay": "viral entry, inhibitor", "setting": "pseudovirus", "quantity": "IC50", "value": "11.9 µM"}
{"Structure (SMILES)": "CC(C)C(=O)OCC(=O)[C@@]12O[C@H](C3CCCCC3)O[C@@H]1C[C@H]1[C@@H]3CCC4=CC(=O)C=C[C@]4(C)[C@H]3[C@@H](O)C[C@@]12C", "target or system": "Severe acute respiratory syndrome coronavirus 2", "assay": "viral replication, inhibitor", "system": "VeroE6/TMPRSS2", "setting": "24 h", "quantity": "IC50", "value": "8.6 µM"}
{"Structure (SMILES)": "CC(C)C[C@H](NC(=O)[C@H](Cc1ccccc1)NC(=O)c1cnccn1)B(O)O", "target or system": "Severe acute respiratory syndrome coronavirus 2", "assay": "cytopathic effect", "system": "Vero C1008", "setting": "72 h", "quantity": "IC50", "value": "~0.496 µM"}
{"Structure (SMILES)": "COc1ncc(-c2cn([C@@H]3O[C@](F)(COC(=O)C(C)C)[C@@H](OC(=O)C(C)C)[C@H]3OC(=O)C(C)C)cn2)c(OC)n1", "target or system": "Severe acute respiratory syndrome coronavirus 2", "assay": "viral replication, inhibitor", "system": "A549-ACE2", "setting": "24 h", "quantity": "IC50", "value": "18.7 µM"}
{"Structure (SMILES)": "CC[C@H](C)[C@H](NC(=O)[C@H](CC(C)C)NC(=O)[C@H](Cc1c[nH]c2ccccc12)NC(=O)[C@H](CCC(N)=O)NC(=O)[C@@H](NC(=O)[C@H](Cc1ccccc1)NC(=O)[C@H](C)NC(=O)[C@H](CCCCNC(=O)COCCOCCNC(=O)COCCOCCNC(=O)CC[C@H](NC(=O)CCCCCCCCCCCCCCCCCCC(=O)O)C(=O)O)NC(=O)[C@H](CCC(N)=O)NC(=O)[C@H](C)NC(=O)[C@@H](NC(=O)[C@H](CCCCN)NC(=O)[C@H](CC(=O)O)NC(=O)[C@H](CC(C)C)NC(=O)C(C)(C)NC(=O)[C@@H](NC(=O)[C@H](CO)NC(=O)[C@H](Cc1ccc(O)cc1)NC(=O)[C@H](CC(=O)O)NC(=O)[C@H](CO)NC(=O)[C@@H](NC(=O)[C@H](Cc1ccccc1)NC(=O)[C@@H](NC(=O)CNC(=O)[C@H](CCC(=O)O)NC(=O)C(C)(C)NC(=O)[C@@H](N)Cc1ccc(O)cc1)[C@@H](C)O)[C@@H](C)O)[C@@H](C)CC)[C@@H](C)CC)C(C)C)C(=O)N[C@@H](C)C(=O)NCC(=O)NCC(=O)N1CCC[C@H]1C(=O)N[C@@H](CO)C(=O)N[C@@H](CO)C(=O)NCC(=O)N[C@@H](C)C(=O)N1CCC[C@H]1C(=O)N1CCC[C@H]1C(=O)N1CCC[C@H]1C(=O)N[C@@H](CO)C(N)=O", "system": "healthy subjects, single ascending dose", "setting": "5.0 mg, baseline", "quantity": "serum amylase", "value": "78.3 ± 16.3 U/L"}
{"Structure (SMILES)": "COC[C@H]1OC(=O)c2coc3c2[C@@]1(C)C1=C(C3=O)[C@@H]2CCC(=O)[C@@]2(C)C[C@H]1OC(C)=O", "target or system": "Severe acute respiratory syndrome coronavirus 2", "assay": "cytopathic effect", "system": "Vero C1008", "setting": "72 h", "quantity": "IC50", "value": "0.941 µM"}
{"note": "Repeated from above:"}
{"Structure (SMILES)": "COc1ncc(-c2cn([C@@H]3O[C@](F)(CO[P@@](=O)(N[C@@H](C)C(=O)OC(C)C)Oc4ccccc4)[C@@H](OC(=O)C(C)C)[C@H]3OC(=O)C(C)C)cn2)cn1", "target or system": "Severe acute respiratory syndrome coronavirus 2", "assay": "viral replication, inhibitor", "system": "A549-ACE2", "setting": "24 h", "quantity": "IC50", "value": "30.9 µM"}
{"Structure (SMILES)": "C=CCc1cc(-c2cc(CC=C)c3oc(=O)n(Cc4nnc(-c5ccc(OC)cc5)o4)c3c2)c2oc(=O)n(Cc3nnc(-c4ccc(OC)cc4)o3)c2c1", "target or system": "Severe acute respiratory syndrome coronavirus 2", "assay": "viral entry, inhibitor", "setting": "pseudovirus", "quantity": "IC50", "value": "11.9 µM"}
{"Structure (SMILES)": "CC(C)C(=O)OCC(=O)[C@@]12O[C@H](C3CCCCC3)O[C@@H]1C[C@H]1[C@@H]3CCC4=CC(=O)C=C[C@]4(C)[C@H]3[C@@H](O)C[C@@]12C", "target or system": "Severe acute respiratory syndrome coronavirus 2", "assay": "viral replication, inhibitor", "system": "VeroE6/TMPRSS2", "setting": "24 h", "quantity": "IC50", "value": "8.6 µM"}
